Experimental data of several laboratories.
Parts stem from different laboratories: compare values within a part only.

Block 1
Target: RING finger protein unkempt homolog, zinc fingers 1-6, GST-SBP tag (UNK, Homo sapiens, UniProt Q9C0B0, residues 30-357)
Sequence of UniProt Q9C0B0 (30-357, looked up): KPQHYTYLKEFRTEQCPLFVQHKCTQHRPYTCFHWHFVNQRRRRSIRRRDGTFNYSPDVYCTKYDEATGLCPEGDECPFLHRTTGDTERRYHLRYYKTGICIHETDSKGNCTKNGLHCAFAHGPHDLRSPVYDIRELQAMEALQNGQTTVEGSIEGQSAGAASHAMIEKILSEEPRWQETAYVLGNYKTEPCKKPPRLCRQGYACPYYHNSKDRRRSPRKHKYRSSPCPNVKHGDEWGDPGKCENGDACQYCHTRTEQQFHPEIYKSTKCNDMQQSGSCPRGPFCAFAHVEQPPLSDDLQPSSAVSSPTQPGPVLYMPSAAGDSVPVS
Technique: RNA Bind-n-Seq
Molecule type: RNA
Sample: in vitro
Tested at: not given
Notes: RNA with constant flanks, human and mouse sites, ends assumed
Reference: input RNA pool
Direction: higher = stronger binding
Shared flanks, not repeated: GGGAGUUCUACAGUCCGACGAUC … CAACAGAGGAUUGAGCAUCA
`UUUAGUGACUAUGGUAAGCUUUUGUUCAUUUGUUUCAGACUUUUUUCUCCUGUAAAAAAAUAGUACUGAUUAACUUUUUUAAAAGAAAGAUUUUACUGUAAAUAUGGAUUUUUUUUUUUU` gave a bound/input enrichment of 7.16 ratio.
`UAUUUCAGGGCCAUGUUUAUGAGUGGACUAAGUGAAAGCAAACAAACCCAUGUACACCUGAGGAAUGUCGAUGCUGCCACCUUACAGAUAAUAAUAACUUAUGCAUACACGGGUAACUUG` has a bound/input enrichment of 0.27 ratio.
With `AACCUCUGCAAGCUCAUGAAAGAAAUCUUAGAUAAGAAGGUUGAGAAGGUGACAAUCUCCAAUAGACUUGUGUCUUCACCUUGCUGCAUUGUGACCAGCACCUACGGCUGGACAGCCAAU` the bound/input enrichment was 0.278 ratio.
The bound/input enrichment of `UCACACUCACAUUGUGGCAAACAGUCAACAUGGAAGUAGACCGGCUCUGCUGAUUUGAAAUUUAGAUUUUUUUUUAAUUAUGUACUGGGGACAGGUUUUUGUCGCUUUACAUUGCUUCCU` is reported as 86.5 ratio.
For `CUCUCCGCGCGCCCGACAGCUCAGCCCUCGCCCGUGACCAACAUCAUGUGCGGUAUAUUUGCUUAUUUAAAUUACCAUGUUCCUCGAACAAGACGAGAAAUCUUGGAGACACUAAUCAAA`, the bound/input enrichment was 0.322 ratio.
The bound/input enrichment of `GAUGUAGUAGUCAACAUUUUUAUUAACAGUUUUGGAUCCAUUCAAGAAACAACAAUGGACUAUAGAGUUAACAUCUUCCUGAGACAAAAAUGGAAUGACCCCAGGCUGAAGCUCCCCAGU` is reported as 0.952 ratio.
`GUGGAGGGCGCCAUCUAUGGUGUGGAUGGGAAACUGCUCCAGCUCCAAGAGGUUUUUCAGCUCUUUGACAACGCCAACUGCCCAAGCCUACAGAACAAACCAAAAAUGUUCUUCAUCCAG` gave a bound/input enrichment of 0.115 ratio.
`CGUUUCUAUAAGAAUUGGCAUAAAUCUAAGAAGAAGGCCUUUACCAAGUACUGCAAGAAAUGGCAGGAUGAGGAUGGCAAGAAGCAGCUGGAGAAGGACUUCAGCAGCAUGAAGAAGUAC` has a bound/input enrichment of 0.166 ratio.

Block 2
Target: Histone acetyltransferase KAT6A, both winged helices, GST fusion (KAT6A, Homo sapiens, UniProt Q92794, residues 1-181)
Technique: protein binding microarray
Molecule type: double-stranded DNA, one strand shown
Sample: in vitro
Tested at: not given
Notes: 8-mer, flanks averaged, mean of 2 arrays, mostly near background
Reference: not given
Direction: higher = stronger binding
Construct (chain): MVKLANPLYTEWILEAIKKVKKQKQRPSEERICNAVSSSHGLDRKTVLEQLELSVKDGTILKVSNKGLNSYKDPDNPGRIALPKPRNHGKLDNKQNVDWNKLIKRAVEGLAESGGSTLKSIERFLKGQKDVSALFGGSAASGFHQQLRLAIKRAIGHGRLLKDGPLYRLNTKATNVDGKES
The E-score of `GAACAATA` is reported as 0.0589.
For `GAAGTCCA`, the E-score was -0.102.
`ATCGACAA` gave an E-score of -0.124.
`ACAACGTC` has an E-score of -0.0471.
With `ACTGAGAC` the E-score was -0.0633.
The E-score of `AAAGGTTA` is reported as -0.0679.
`ACACTCTA` gave an E-score of -0.0504.
The E-score of `AGGCTCGG` is reported as -5e-06.
With `ACCCATAG` the E-score was -0.248.
The E-score of `GCCTAGCA` is reported as -0.0136.
The E-score of `CTACTGAA` is reported as -0.107.
For `ATTTATCG`, the E-score was 0.0557.
`CATTCAGA` has an E-score of -0.0728.
`CAGAGTCA` gave an E-score of 0.0352.
The E-score of `CACACACA` is reported as -0.241.
`GCGCCGAC` has an E-score of 0.337.
The E-score of `GGTACCTA` is reported as -0.14.
`CCACGGGG` gave an E-score of 0.113.
`ATAAAGGG` has an E-score of -0.0293.
With `CCGAATGA` the E-score was 0.162.
`AAGCGACT` gave an E-score of -0.0944.
`AGGATAAT` gave an E-score of -0.189.
For `ATGCGCTG`, the E-score was 0.239.
The E-score of `ATATCCAT` is reported as -0.121.
With `CACGTCCA` the E-score was -0.0664.

Block 3
Target: RNA binding protein fox-1 homolog 2, RRM domain, GST-SBP tag (RBFOX2, Homo sapiens, UniProt O43251-10, residues 100-194)
Technique: RNA Bind-n-Seq
Molecule type: RNA
Sample: in vitro
Tested at: 365 nM
Notes: natural RNA segment, single round, ends assumed
Reference: no-protein control
Direction: higher = stronger binding
Shared flanks, not repeated: GGGAGUUCUACAGUCCGACGAUC … UGGAAUUCUCGGGUGCCAA
Construct (chain): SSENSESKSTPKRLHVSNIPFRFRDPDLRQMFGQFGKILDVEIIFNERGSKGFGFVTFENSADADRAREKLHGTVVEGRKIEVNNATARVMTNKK
`AUGGCUCAGAGGUGAUUCGGGCAGCCAGGGACAGGAGCCACCCUCCCCAGGCCCAACUCUGCUAGCUUCCCAGACCACCCCCAUCGAGUGCGGAGAGAGUGGGAGUGCUC` — result for “RBNS enrichment (R)”: 1.14.
Under “RBNS enrichment (R)”, `UAGCCCCGAAUCACUUCAGCUCCCUUCCCUGCCUGGACCAUUCCCAGCUCCCUGCUCACUCUUCUCUCAGCCAAAGCCUCCAAAGGGACUAGAGAGAAGCCUCCUGCUCC` is recorded as 0.529.
For `GAAGAUCAGUCUAAGCUGCCACGGUGAUGAGACCUUCUCAUUAUGUAACUCUUGAUGGCAUUUCCCUUCUGAGUGAAGAUUUGAAAUAUGAUUGAUUAGAAUUGUGCUCU`, “RBNS enrichment (R)” read 0.339.
`GCACCACUGUGUUGUGGCUUGUUGACCGGGAAUGUGUCACCCCUGCCAGGGAACUCUUCUCCUCGCGGGGGACUUGGGAUGGCCAUCAGACCUUCUAGGGUCUGGCUGGG` — result for “RBNS enrichment (R)”: 0.234.
Under “RBNS enrichment (R)”, `AGAGAAGUUUGAAUGUUUGUGUCAGUUUUGGGUCAGCCUAGAUAAAGAUGGGAAAGAGGGAGUGUUCCUUAUGUCUUGUUUUGUAAUUGUUUGAGUGGUUUCUAAAAUAU` is recorded as 0.651.
`UCGUGAUUGCUUCCUGUGAACGCCUCCCAAGGACGAGCCCAGUGUAGUUGUGUGGCGUGAACUCUGCCCGUGUGUUCUCAAAUUCCCCAGCUUGGGAAAUAGCCCUUGGU`: “RBNS enrichment (R)” 0.459.
For `AUGUGCUGCCCAACAACUAAAUUUGUAAUUUGUUUUUCUCUAGUUUGAGCAGGGUCUGAAUUUUUUCAUUUAUUUCCUUUUUUGCCAGCAGACAGACUUGAGUCUGUAAA`, “RBNS enrichment (R)” read 1.06.
Under “RBNS enrichment (R)”, `GAAGCUGGUAGAGCAGCUUAAGAUGGAAGCCAAUAUCGACAGGAUAAAGGUGUCCAAGGCAGCUGCAGAUUUGAUGGCCUACUGUGAAGCACAUGCCAAGGAAGACCCCC` is recorded as 0.267.

Block 4
Target: Interferon regulatory factor 7, full length, phosphomimetic (IRF7, Homo sapiens, UniProt Q92985, residues 1-503, S471D/S472D/S475D/S476D/S477D/S483D/S484D/S487D)
Sequence of UniProt Q92985 (whole entry, unmodified, looked up): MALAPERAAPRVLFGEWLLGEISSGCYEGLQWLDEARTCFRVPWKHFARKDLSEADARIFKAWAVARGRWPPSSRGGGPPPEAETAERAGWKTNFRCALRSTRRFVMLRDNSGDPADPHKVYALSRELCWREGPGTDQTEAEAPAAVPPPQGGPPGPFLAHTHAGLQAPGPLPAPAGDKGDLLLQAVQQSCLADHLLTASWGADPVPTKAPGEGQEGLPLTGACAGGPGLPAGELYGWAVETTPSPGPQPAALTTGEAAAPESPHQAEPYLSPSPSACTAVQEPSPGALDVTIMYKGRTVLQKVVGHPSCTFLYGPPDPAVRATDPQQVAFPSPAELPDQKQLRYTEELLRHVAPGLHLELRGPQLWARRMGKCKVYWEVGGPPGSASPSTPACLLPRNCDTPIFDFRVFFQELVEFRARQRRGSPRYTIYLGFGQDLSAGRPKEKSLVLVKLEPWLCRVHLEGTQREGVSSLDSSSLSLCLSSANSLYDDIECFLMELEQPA
Technique: protein-binding microarray
Molecule type: double-stranded DNA, one strand shown
Sample: in vitro
Tested at: 2200 nM top
Notes: 60-bp whole probe
With: salmon DNA 0.4 mg/ml
Reference: random background probes
Direction: higher = stronger binding
Shared flanks, not repeated: GCCTAGCAC … GTCTTGATTCGCTTGACGCTGCTG
`TTAGGACTGCTTTTCCATTAGTGCTAG` — result for “fitted relative affinity”: 1.01 z-score.
`TTAGGTTTCGACACTGCGTTAGTGCTA` — result for “fitted relative affinity”: 2.25 z-score.
Under “fitted relative affinity”, `GACGGTTTCCTACTGCAGACGTGCTAG` is recorded as 1.87 z-score.
`TTAGATTTCGGGTTTTGATTAGTGCTA`: “fitted relative affinity” 3.82 z-score.
For `GACGGTTTCGCTTCCGGGACGTGCTAG`, “fitted relative affinity” read 8.79 z-score.
Under “fitted relative affinity”, `TTAGGTTTCGACTAGCGGTTAGTGCTA` is recorded as 3.22 z-score.
For `CCCACTTTCAGTTCTCCCTTGTGCTAG`, “fitted relative affinity” read 9.74 z-score.
`GAAGGTTTCGGTCTCGGGACGTGCTAG`: “fitted relative affinity” 5.9 z-score.
`GACGGACTGGACTTTCGGAACGTGCTA` — result for “fitted relative affinity”: 2.5 z-score.
`GACGGTATCGACTATCGGGACGTGCTA` — result for “fitted relative affinity”: -0.159 z-score.
`GGGTCTGTGCCTTTTTTTTTGTGCTAG` — result for “fitted relative affinity”: 0.0915 z-score.
Under “fitted relative affinity”, `TTAGATTTCAGTATCGATGAGTGCTAG` is recorded as 0.54 z-score.
Under “fitted relative affinity”, `TACCTTTTCACTTTACACACGTGCTAG` is recorded as 4.38 z-score.
Under “fitted relative affinity”, `TCATAAATCTTTTTCCCACTGTGCTAG` is recorded as 0.828 z-score.
For `TTAGATTTCAGTATGGATTAGTGCTAG`, “fitted relative affinity” read 0.556 z-score.
Under “fitted relative affinity”, `GACCAACTGAGTCTCGAGACGTGCTAG` is recorded as 0.227 z-score.
`ACCTCTCACGCATCTGAAACCGTGCTA` — result for “fitted relative affinity”: 1.21 z-score.
`TTTAGAAAGATTAGGGGTGCGTGCTAG` — result for “fitted relative affinity”: -0.347 z-score.
Under “fitted relative affinity”, `TCAATTTCAGTTTTCTTACTGTGCTAG` is recorded as 3.39 z-score.

Some of these lines once more (block 3):
`AUGGCUCAGAGGUGAUUCGGGCAGCCAGGGACAGGAGCCACCCUCCCCAGGCCCAACUCUGCUAGCUUCCCAGACCACCCCCAUCGAGUGCGGAGAGAGUGGGAGUGCUC` — result for “RBNS enrichment (R)”: 1.14.
Under “RBNS enrichment (R)”, `UAGCCCCGAAUCACUUCAGCUCCCUUCCCUGCCUGGACCAUUCCCAGCUCCCUGCUCACUCUUCUCUCAGCCAAAGCCUCCAAAGGGACUAGAGAGAAGCCUCCUGCUCC` is recorded as 0.529.
For `GAAGAUCAGUCUAAGCUGCCACGGUGAUGAGACCUUCUCAUUAUGUAACUCUUGAUGGCAUUUCCCUUCUGAGUGAAGAUUUGAAAUAUGAUUGAUUAGAAUUGUGCUCU`, “RBNS enrichment (R)” read 0.339.
`GCACCACUGUGUUGUGGCUUGUUGACCGGGAAUGUGUCACCCCUGCCAGGGAACUCUUCUCCUCGCGGGGGACUUGGGAUGGCCAUCAGACCUUCUAGGGUCUGGCUGGG` — result for “RBNS enrichment (R)”: 0.234.
Under “RBNS enrichment (R)”, `AGAGAAGUUUGAAUGUUUGUGUCAGUUUUGGGUCAGCCUAGAUAAAGAUGGGAAAGAGGGAGUGUUCCUUAUGUCUUGUUUUGUAAUUGUUUGAGUGGUUUCUAAAAUAU` is recorded as 0.651.
`UCGUGAUUGCUUCCUGUGAACGCCUCCCAAGGACGAGCCCAGUGUAGUUGUGUGGCGUGAACUCUGCCCGUGUGUUCUCAAAUUCCCCAGCUUGGGAAAUAGCCCUUGGU`: “RBNS enrichment (R)” 0.459.
For `AUGUGCUGCCCAACAACUAAAUUUGUAAUUUGUUUUUCUCUAGUUUGAGCAGGGUCUGAAUUUUUUCAUUUAUUUCCUUUUUUGCCAGCAGACAGACUUGAGUCUGUAAA`, “RBNS enrichment (R)” read 1.06.
